Experimental data pooled from the literature.
Numbered parts are unrelated; each lists some results of a single study. Positions count from the first letter of the parent shown.

Set 1
Target: CCNA2, cyclin fold, Cln2 fusion (human)
Technique: yeast growth competition, sequencing
Sample: yeast
Setting: strong parent motif
Relative to: not given
Direction: higher = stronger binding
Starting sequence: viral docking peptide; YKVKRRLVFGADD
Substitution | normalised enrichment score
V8W | 6.21
R6I | 4.34
A11T | 6.7
K4I | 3.76
K4N | 5.65
D12E | 6.22
F9Y | 6.54
K2T | 6.15

Set 2
Target: Delta-type opioid receptor (OPRD1, Homo sapiens, UniProt P41143)
Chain of UniProt P41143 (whole entry, looked up): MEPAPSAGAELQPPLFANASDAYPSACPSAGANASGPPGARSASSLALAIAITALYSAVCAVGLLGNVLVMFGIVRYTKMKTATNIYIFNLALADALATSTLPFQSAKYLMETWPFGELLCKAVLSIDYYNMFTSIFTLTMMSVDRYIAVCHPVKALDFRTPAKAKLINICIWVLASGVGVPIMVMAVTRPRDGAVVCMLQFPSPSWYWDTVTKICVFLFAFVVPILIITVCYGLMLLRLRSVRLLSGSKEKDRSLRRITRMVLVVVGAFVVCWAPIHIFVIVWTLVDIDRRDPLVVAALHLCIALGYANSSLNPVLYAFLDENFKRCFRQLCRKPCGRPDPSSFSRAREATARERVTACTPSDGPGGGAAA
Read-out: ligand displacement
Tested at: 10 µM
SMILES | inhibition [%]
CCc1ccccc1C(=O)Nc1n[nH]c2c(C)c(F)c(C3C(C#N)=C(C)N(C)C(C)=C3C#N)cc12 | 20.5
C[C@@H](c1cccc(C#N)c1)n1cc(Cl)cc(C(N)=O)c1=N | -3.33
c1ccc(C2CCN(c3cnc4c(N5CCOCC5)nccn34)CC2)cc1 | 2.73
O=C1NC(c2ccccn2)Sc2ccccc21 (centres unmarked) | -0.624
CN(C)c1ncnc(-c2ccc3nc(Nc4cc(CN5CCN(C(=O)CC(F)(F)F)CC5)ccn4)[nH]c3c2)c1Cl | 2.06
COc1cc(N[C@@H]2CCCC[C@]2(O)C(F)(F)F)ccc1F | 14.4
C[C@H](c1ccc(F)cc1)N(Cc1cccc(C(=O)O)c1)C(=O)c1cnc2ccccc2c1 | -1.72
CN(C)CC#Cc1ccc(OCCCc2sc(N3CCc4cccc(C(=O)Nc5nc6ccccc6s5)c4C3)nc2C(=O)O)c(F)c1 | 54.6
COc1cc(C(=O)O)ncc1C#Cc1ccccc1NS(=O)(=O)c1cccc2c(N(C)C)ccnc12 | 84.3
O=C(Nc1ccc(Oc2ccc(F)cc2)cc1)N1CCc2ncccc2[C@H]1c1ccc(F)cc1 | 32.7
CC(=O)N1CCC(c2ccc(C(=O)NC3=NCCN3)cc2C(F)(F)F)CC1 | -0.82
O=C(NCCCC1CCCCC1)c1ccc(CNC(=O)c2cnn(-c3ccccc3)c2C(F)(F)F)cc1 | 12.9
CC1=C(C#N)C(c2ccc3[nH]nc(C)c3c2)C(C#N)=C(C)N1 | 16.9
Nc1cnc(N2CCc3cc(S(=O)(=O)Nc4c(F)cc(Cl)cc4F)cc(N4CCCC4=O)c32)nc1 | -1.24

Set 3
Target: tungstate, free oxyanion
Technique: microfluidic competitive inhibition
Sample: in vitro, cell-free expressed
Tested at: not given
Setting: derived from inhibition constants, unchanged parent 2230 nM
Direction: lower = stronger binding
Starting sequence: PafA, mature enzyme, eGFP fusion (Elizabethkingia meningoseptica, UniProt Q9KJX5); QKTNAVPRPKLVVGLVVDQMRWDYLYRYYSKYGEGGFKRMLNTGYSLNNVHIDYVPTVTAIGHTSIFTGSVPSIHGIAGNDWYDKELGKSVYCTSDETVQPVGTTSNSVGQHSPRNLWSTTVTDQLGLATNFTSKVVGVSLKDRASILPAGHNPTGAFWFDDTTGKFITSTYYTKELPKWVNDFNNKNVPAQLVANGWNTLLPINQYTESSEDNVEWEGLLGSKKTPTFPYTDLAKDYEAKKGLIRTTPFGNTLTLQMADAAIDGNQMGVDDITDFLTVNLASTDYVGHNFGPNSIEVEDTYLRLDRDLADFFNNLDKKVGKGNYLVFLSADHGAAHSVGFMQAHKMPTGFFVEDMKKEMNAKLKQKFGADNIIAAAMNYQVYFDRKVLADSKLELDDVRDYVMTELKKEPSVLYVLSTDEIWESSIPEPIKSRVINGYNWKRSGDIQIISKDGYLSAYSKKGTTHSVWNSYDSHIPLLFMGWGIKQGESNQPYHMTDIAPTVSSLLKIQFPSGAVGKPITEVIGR
Substitution | oxyanion analog dissociation constant [µM]
D272G | 2.29
K358V | 2.52
S460G | 1.53
S211V | 2.23
S70G | 1.83
T68V | 1.28
P9G | 1.26
M378V | 2.44

Mixed results
Compound | tested on | assay | test system | conditions | endpoint | value
O=c1c2c(Cl)cccc2nc([C@@H]2CCCN2)n1-c1cccnc1 | – | – | mouse, microsomes or S9 | 2 µM, 0.5 h | remaining compound | > 99.9%
C[S+]([O-])CCCCN=C=S (centres unmarked) | chymotrypsin | enzyme activity | – | concentration not given | inhibition | 8.5%

Excerpt of the above (set 2):
SMILES | inhibition [%]
CN(C)CC#Cc1ccc(OCCCc2sc(N3CCc4cccc(C(=O)Nc5nc6ccccc6s5)c4C3)nc2C(=O)O)c(F)c1 | 54.6
COc1cc(N[C@@H]2CCCC[C@]2(O)C(F)(F)F)ccc1F | 14.4
CN(C)c1ncnc(-c2ccc3nc(Nc4cc(CN5CCN(C(=O)CC(F)(F)F)CC5)ccn4)[nH]c3c2)c1Cl | 2.06
C[C@H](c1ccc(F)cc1)N(Cc1cccc(C(=O)O)c1)C(=O)c1cnc2ccccc2c1 | -1.72
c1ccc(C2CCN(c3cnc4c(N5CCOCC5)nccn34)CC2)cc1 | 2.73
